Measured values pooled from the literature.
Lines come from different studies, so protocols differ.
SLC6A3: Sodium-dependent dopamine transporter (SLC6A3, Homo sapiens, UniProt Q01959)

| Compound | target | test | system | setting | how to read | endpoint | value |
| --- | --- | --- | --- | --- | --- | --- | --- |
| COc1ccc(F)cc1S(=O)(=O)Nc1cnc2c(c1)C(=O)NCCO2 | SLC6A3 | ligand displacement, radioligand | – | 10 µM | – | inhibition | 4% |
| CCN(CC)CCOc1ccc(-c2nnn(Cc3ccc(OC)cc3)c2N)cc1 | SLC6A3 | radioligand binding | CHO-K1 | 10 µM, safety profiling | – | inhibition | 0.65% |
| Cc1sc2c(c1C)C(c1ccc(Cl)cc1)=NC(CC(=O)OC(C)(C)C)c1nnc(C)n1-2 (centres unmarked) | SLC6A3 | ligand displacement, radioligand | – | 1 µM | – | remaining binding | 107% |
| CCCO[C@H]1[C@H](O)[C@@H](N)[C@@H](O[C@H]2[C@H](O[C@@H]3O[C@H](CO)[C@@H](O[C@H]4O[C@@H](CN)[C@@H](O)[C@H](O)[C@H]4N)[C@H]3O)[C@@H](O)[C@H](N)C[C@@H]2N)O[C@@H]1CO | SLC6A3 | radioligand binding | – | 10 µM, 1% DMSO | – | specific binding | 2% |
| CN[C@@H]1[C@H](O)[C@H](NC)[C@H]2O[C@]3(O)[C@H](O[C@@H]2[C@H]1O)O[C@H](C)C[C@H]3NC(=O)Cc1ccc(Cl)cn1 | SLC6A3 | ligand displacement, radioligand | – | 10 µM | – | inhibition | 17% |
| CCc1nnc(-c2c(OC)cc(-c3cnc4cc(-c5cnn(C)c5)ccn34)cc2OC)o1 | SLC6A3 | antagonist radioligand, radioligand binding | – | 10 µM, SafetyScreen44 dopamine transporter mean | lower = stronger displacement | remaining binding | 92.7% |
| Cc1cc(Nc2nc(C[C@@]3(C(=O)O)CCN(Cc4cccc(Cl)c4F)[C@H](C)C3)cc(C)c2F)[nH]n1 | SLC6A3 | inhibitor | – | 10 µM | – | inhibition | 21.5% |
| CCOCC1C(c2ccc(Cl)c(Cl)c2)CC2CCC1N2C (centres unmarked) | SLC6A3 (Homo sapiens, UniProt Q01959, F326A) | dopamine uptake | – | 0.003 µM, 0.03333 h, F326A mutant, with: [3H]dopamine | relative to: no inhibitor | remaining activity | 40.6% |

A few entries again:
| Compound | target | test | system | setting | how to read | endpoint | value |
| --- | --- | --- | --- | --- | --- | --- | --- |
| CCc1nnc(-c2c(OC)cc(-c3cnc4cc(-c5cnn(C)c5)ccn34)cc2OC)o1 | SLC6A3 | antagonist radioligand, radioligand binding | – | 10 µM, SafetyScreen44 dopamine transporter mean | lower = stronger displacement | remaining binding | 92.7% |
